Results from different studies.
Numbered parts are unrelated; each lists some results of a single study. Changes are numbered by the printed parent chain.

Set 1
Target: Histone acetyltransferase KAT6A, both winged helices, GST fusion (KAT6A, Homo sapiens, UniProt Q92794, residues 1-181)
Technique: protein binding microarray
Molecule type: double-stranded DNA, one strand shown
Matrix: in vitro
Concentration: not given
Notes: 8-mer, flanks averaged, mean of 2 arrays, mostly near background
Baseline: not given
Direction: higher = stronger binding
Residues (chain): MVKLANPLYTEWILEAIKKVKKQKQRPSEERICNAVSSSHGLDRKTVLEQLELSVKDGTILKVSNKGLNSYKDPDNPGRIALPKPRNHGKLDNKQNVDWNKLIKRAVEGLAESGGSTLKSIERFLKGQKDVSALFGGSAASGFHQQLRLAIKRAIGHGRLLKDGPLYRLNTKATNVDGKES
| Oligonucleotide | E-score |
| --- | --- |
| CGGCACCC | 0.173 |
| AATGGCTC | -0.171 |
| GTGACTTA | 0.00236 |
| TCTGGGAA | -0.134 |
| CACTTGGC | -0.109 |
| ATCTGTCA | -0.108 |

Set 2
Target: Prothrombin, mature alpha-thrombin (F2, Homo sapiens, UniProt P00734)
Technique: aptamer microarray, sandwich
Molecule type: DNA with 2'F-ANA
Matrix: in vitro
Concentration: 200 nM
Notes: whole 15-mer aptamer, many near background
Together with: Cy3 exosite-II aptamer, 400 nM
Direction: higher = stronger binding
Oligonucleotide: GGTTGGTGTGGTTGG
| Modification | mean fluorescence intensity [a.u.] |
| --- | --- |
| 2'F-ANA at 1 2 3 5 6 7 8 12 15 | 140 |
| 2'F-ANA at 2 3 4 8 10 14 15 | 179 |
| 2'F-ANA at 4 5 7 11 | 57.4 |
| 2'F-ANA at 1 3 4 7 8 10 11 12 13 | 68 |
| 2'F-ANA at 2 4 5 6 8 9 10 11 13 | 51.5 |
| 2'F-ANA at 1 4 5 6 7 9 13 | 59.9 |
| 2'F-ANA at 1 2 7 8 11 14 | 57.5 |

Set 3
Target: CCNE2, cyclin fold, Cln2 fusion (human)
Technique: yeast growth competition, sequencing
Matrix: yeast
Notes: weak parent motif
Baseline: not given
Direction: higher = stronger binding
Starting sequence: SAMHD1 docking peptide (human); ASKSRVQLFKDDP; partner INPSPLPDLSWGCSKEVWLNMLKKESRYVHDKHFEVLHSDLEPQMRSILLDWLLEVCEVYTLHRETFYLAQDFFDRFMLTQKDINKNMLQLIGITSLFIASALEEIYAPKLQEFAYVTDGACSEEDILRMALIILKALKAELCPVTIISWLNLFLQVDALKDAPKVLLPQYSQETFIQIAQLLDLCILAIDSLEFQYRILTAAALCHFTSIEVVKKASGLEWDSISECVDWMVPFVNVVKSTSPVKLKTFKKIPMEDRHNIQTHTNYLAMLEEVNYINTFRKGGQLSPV
| Change | normalised enrichment score |
| --- | --- |
| ASKSTVQLFKDDP [R5T] | -0.106 |
| ASKSRVQLCKDDP [F9C] | 0.128 |
| ASKSRVQDFKDDP [L8D] | -0.000719 |
| ASDSRVQLFKDDP [K3D] | -0.297 |

Single results of other studies
| Molecule | target | test | test system | setting | how to read | endpoint | value |
| --- | --- | --- | --- | --- | --- | --- | --- |
| PhoQ, residues 284 288 289 292 302 303 TTSMTC | PhoP, residues 12 14 15 18 19 TPLRH (Escherichia coli, UniProt P23836) | Sort-seq, measured: YFP reporter | E. coli | PhoQ-PhoP variant library, together with: 10 µM Mg2+ | baseline: high Mg2+ state, higher = stronger signaling | fold induction | 1.26 |

A few entries again (set 1):
| Oligonucleotide | E-score |
| --- | --- |
| ATCTGTCA | -0.108 |
| CGGCACCC | 0.173 |
